Measured values collected from several papers.
Parts stem from different laboratories: compare values within a part only.

Sample 1 — technique: protein binding microarray; molecule type: double-stranded DNA, one strand shown; sample: in vitro; tested at: not given; reference: not given; direction: higher = stronger binding; quantity: E-score
Target: Histone acetyltransferase KAT6A, winged helix 1, GST fusion (KAT6A, Homo sapiens, UniProt Q92794, residues 1-85)
Setting: 8-mer, flanks averaged, mean of 2 arrays, mostly near background
Target sequence (chain): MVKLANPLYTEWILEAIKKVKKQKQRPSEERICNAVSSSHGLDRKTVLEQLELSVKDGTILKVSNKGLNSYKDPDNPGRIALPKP
AAACTAGA: -0.145
GAATGTAC: -0.00726
GATAACCA: -0.107
CCGCCCGG: 0.417
ACGATGAA: -0.108
GCGTCAAA: 0.0247
TGTATTAA: -0.058
ACAACTCT: -0.269
ACTGCGTG: 0.00647
GCACTGAA: -0.0118
CCCGGATC: 0.0579
GATGTTAC: 0.114
CCACACAG: -0.285
GAAGATAA: 0.028
AACAACGG: 0.117
CCCTCGTC: -0.0276
ATGCATGA: -0.204
AGATAAAC: -0.0642
CAAGCCTA: -0.139
GAGTTAGA: -0.0795
CCAGGCGG: 0.239

Sample 2 — technique: RNA Bind-n-Seq; molecule type: RNA; sample: in vitro; tested at: not given; reference: input RNA pool; direction: higher = stronger binding; quantity: bound/input enrichment
Target: RING finger protein unkempt homolog, zinc fingers 1-6, GST-SBP tag (UNK, Homo sapiens, UniProt Q9C0B0, residues 30-357)
Setting: RNA with constant flanks, human-mouse chimeric sites, ends assumed
Shared flanks, not repeated: GGGAGUUCUACAGUCCGACGAUC … CAACAGAGGAUUGAGCAUCA
Construct (chain): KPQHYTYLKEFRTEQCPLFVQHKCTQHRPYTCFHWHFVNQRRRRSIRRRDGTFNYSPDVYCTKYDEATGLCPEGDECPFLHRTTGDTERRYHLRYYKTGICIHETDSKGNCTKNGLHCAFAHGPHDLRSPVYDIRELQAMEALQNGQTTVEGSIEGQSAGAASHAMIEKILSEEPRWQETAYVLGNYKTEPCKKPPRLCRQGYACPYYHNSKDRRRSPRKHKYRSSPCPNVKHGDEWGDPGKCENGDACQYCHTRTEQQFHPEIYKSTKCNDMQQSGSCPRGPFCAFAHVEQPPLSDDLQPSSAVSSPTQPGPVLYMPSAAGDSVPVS
CUGUUUUGACAGCCACACAAUCUUGGCAUGUAUUAAGGAAAAAAAAAAUCCCUGUUCAAGUAGUUUUUCCACCUAUCAGCACUGAGUAAAUGCCAUAAAUCCAUUGAAAUGGUCUAAAUA: 0.263 ratio
AAUUUCCUGUCAUACUUUUUAGACAUUCACAUCAGACGCCUUACUACCCUGGCCACAUUCUAGGUUUGUGUUAUUUCUAAGCCUUUUAUAUGAUCAAAUGAGAACACUGCUUAACUAAUG: 0.475 ratio
AUCAAAUACUUUGGGGACAUCAUUAGUGUGGGACAGAGACUGUUGCAAGGAGCUCGGAUCUUAGGGAUUCCUGUUAUCAUAACGGAACAAUACCCCAAAGGACUUGGCAGCACCGUUCAA: 0.199 ratio
AAAGAGAAACUAAAGCAACUAAUAGAGAAGAGGAUUGGGCAAAGAGAAUUUCAUAGAAAACUAGGAUUUAUUAGCAAACAUGAGUUAUAUUCCAGAGCGUCUCAGAAACCCCAGCCAAAC: 20.3 ratio
UUGCUACUGACUCCCUGGGUUAAAUUCCUGUGGGAAUCAUACAGGCAGUGUUUGGACCUUCUUCGAAACAAUUCUAGAGUAGAGCGCCUUUACCAUGAUAUCGCCCAACAAGCUUUCAAA: 0.177 ratio
CGGAGCCCUCCUCUCCCACAGGCCCAAGAUAUAACCCACCAGUGCCUUUUGUCUUCCUGUCAGCUCUAAUCAAUCAUCCUGUCCUCUCACGCCCACACUCCCCAGCCAAAGUGGGGAGGG: 0.461 ratio
AACUUCGUACAUAGAUUUCCCUUUGUAGCUGUUUCAAUUGGCUUCCUUGUGAAUAAAGAGAUGGAGUUUGGAAUUGUGUACAGCUGUGUGGAAGAUAAGAUGUACACUGCCAGAAAAGGG: 0.785 ratio
CACACACUCUUCUGCGGGACCCUCAUCCUGCAGGCCCGGGCCUAUGUGGGACCCCGUGUCCUGGCAGUGGUGACCCGCACAGGGUUCUGCACGGCAAAAGGGGGCCUGGUGAGCUCCAUC: 0.0744 ratio
GUUCGACUCUGGGAUCAUGCUACUAUGACAGAAGUGAAAUCUCUGAAUUUUAAUAUGUCUGUUAGCAGCAUGGAGUAUAUUCCUGAAGGAGAGAUUUUGGUUAUUACUUAUGGACGAUCU: 0.186 ratio
UCUUAACUUAUUCAUUUAACUUAUUUUUAGCACUUAGGCAAUAUUGUUAGUCUUAGACAAUAGCUCACAUUUUUUGAGAAGCAUGCCCUCCCUGUCCAUUUGUCUUAUAACAUGACCCAG: 411 ratio
GGCUGCUACUAUUCUCCGGGAGCCGUCUGGAGUUCCCGCCGGAGCGCGGCCAGACUAAUUUUAGAAAAUGCCAAGUAGGAAGUUUGUUGAGGGUGAAGUGGUCAGAGGCCGAUGGCCUGG: 2.58 ratio

Sample 3 — technique: protein-binding microarray; molecule type: double-stranded DNA, one strand shown; sample: in vitro; tested at: 940 nM top; setting: 60-bp whole probe; added: salmon DNA 0.4 mg/ml; reference: random background probes; direction: higher = stronger binding; quantity: fitted relative affinity; shared flanks, not repeated: GCCTAGCAC … GTCTTGATTCGCTTGACGCTGCTG
Target: Interferon regulatory factor 5, full length, phosphomimetic (IRF5, Homo sapiens, UniProt Q13568-2, residues 1-514, S451D/S453D/S456D/S462D)
TCCCTTATAAATAGCACAGGGTGCTAG: 0.59 z-score
TTAGGTATCGACACTGGGTTGGTGCTA: 4.99 z-score
CACACTTTCCCCTTCCTAGTGTGCTAG: 1.62 z-score
CTCTCTTTCCAACTCTGTTTGTGCTAG: 1.77 z-score
TCACATTCTGAATTCGAACTGTGCTAG: 0.247 z-score
GACGGTATCGACAATGGGGACGTGCTA: 3.59 z-score
TTAGGTTTCGCTTCCGGTTAGTGCTAG: 9.87 z-score
TTAGATATCAATATCGATTAGTGCTAG: 0.375 z-score
GACGATATCAGTCTCGATACGTGCTAG: 2.83 z-score
CTTTCTTTGCTTCACCCTGGGTGCTAG: 1.17 z-score
GACGGAGTGGGGTATCGGGACGTGCTA: 0.324 z-score
TCATTTTTGCATTGCTTACTGTGCTAG: 0.593 z-score
TTAGGTCTCGGTATCGGTTAGTGCTAG: 7.21 z-score
TTAGATATCGGGTATCGATGAGTGCTA: 2.02 z-score
TCAAGTTTCCCTCCCTGACTGTGCTAG: 1.35 z-score
TTAGATTTAGGGTTTCGATTAGTGCTA: 4.16 z-score
TCACGTCTGGGTGTTTTACTGTGCTAG: 0.319 z-score
GACGGTTTTGGGTATCGGGACGTGCTA: 2.69 z-score
TTAGAGCTGAGACTGGATTAGTGCTAG: -0.236 z-score
TTAGATATCACTATCGATTAGTGCTAG: 0.954 z-score
GGCCCAGGAGGAGGCCCCTCGTGCTAG: -1.04 z-score
GACGGACTGGACGTTCGGGACGTGCTA: -0.815 z-score
GACGGTATCCAACTGCTGACGTGCTAG: -0.425 z-score
TTAGGACTGGGGTATCTGTTAGTGCTA: 0.456 z-score
TTAGAACTGAGTATCGACTAGTGCTAG: 1.97 z-score

Sample 4 — technique: RNA Bind-n-Seq; molecule type: RNA; sample: in vitro; tested at: 200 nM; setting: whole 134-nt RNA, ends assumed; added: 150 mM KCl; reference: input library; direction: higher = stronger binding; quantity: log2 enrichment
Target: Fragile X messenger ribonucleoprotein 1, C-terminal low-complexity region (Fmr1, Mus musculus, UniProt P35922)
Shared flanks, not repeated: GGGAGUUCUACAGUCCGACGAUC … UGGAAUUCUCGGGUGUCAAGG
ACCAUGCAGGUGGGGAUCUUUGGGAAGUGGGGCAAGGGGGGGAUAGGGAGGGGGGUAACACUUUGGGAACAGGUGGUCCCAGGUCGUUUC: 0.491
AGUCCUGUGCUACACAUCGUAUGUACCGAAUCGGAAAAAGGGAAAAAGGGAAAAAGGAAAGUAUUAUGUUACGCCGUUCGGAUCUGCACU: -0.683
GCAGGAAGUAAAAGCAAAUGGAAAUGCUUCGGAUAGUGGCAGGGGUGGGGGUUGCUAAGGAAAGGGUGGGAUGGGAGUGGGUAAAGAGUU: 0.415
CUGUGCUACACAUCGUAUGUACCGAAUCGGGGCCCCCCCGGGCCCCCCCGGCCCCCCCGGGAAAGUAUUAUGUUACGCCGUUCGGAUCUG: -1
AAAAAAAGUGUGUAUUAGGAGGAGAGAGAGGAAAAAAAGAGGAAAGAAGGAAAAAAAAAAGAAUUAAAAAAAAAAAAAAGAAAAACAGAA: 0.0173
GUCCUGUGCUACACAUCGUAUGUACCGAAUCGGGGAAAGGGGAAAAAGGGGUUUGGGGAAAGUAUUAUGUUACGCCGUUCGGAUCUGCAC: 0.337
UGAAGGCGCGGCCCUUCCCCGACGGCCUGGCCGAGGACAUCGAUAAAGGCGAGGUGUCCGCCCGUCAGGAGCUCAAGCAGCGGGCGCGCU: -0.299
ACCAUGCAGGUGGGCAUCUUUGGGAAGUGGGGCAAGGGAAAGAUAGGGAGGGGGGUAACACUUUGGGAACAGGUGGUCCCAGGUCGUUUC: 0.534
GAAAAUUUCUCAGUUCUUAAGAAUGCUUGCUGUGGGUAUAGUGCAGGUAUAUUGAAAGGAAUUUUUUUCUUGCAGCGGGAAAGAGACAUG: -1.01
UCAAGUCCUGUGCUACACAUCGUAUGUACCGAAUCGGUUUUUGGAGGAAAAAGGAAAGUAUUAUGUUACGCCGUUCGGAUCUGCACUUCC: -0.602
UGCCUACGUAAUUUUUUAUCUUGAAAUAUUCAAAAUUAGGAGCCAGAUGACCAAGAUGCUCCAGAUGAACAUGAGUCGCCUCCACCUGAA: -0.119
CACAGACAACACGCACCCACACAGACACAGAAAGAAGGGGUUGGGAUGGGGACAGGGUGCACAGCAGGGCGGGGUAGGACCCCAGCCCCU: 1.15
GCAGGAAGUAAAAACAAAUGGAAAUGCUUCGGAUAGUGGCAGGGGUGGGGGUUGCUAAGGCAAGGGUGGGAUGGGAGUGGGUAAAGAGUU: 0.49
AGUCCUGUGCUACACAUCGUAUGUACCGAAUCGGGUUUUUGGGUUUUUUUGGGAGGGAAAGUAUUAUGUUACGCCGUUCGGAUCUGCACU: 0.595
